Published values pooled from the literature.
Parts stem from different laboratories: compare values within a part only. Positions count from the first letter of the parent shown.
Chain of UniProt Q9NR20 (whole entry, looked up): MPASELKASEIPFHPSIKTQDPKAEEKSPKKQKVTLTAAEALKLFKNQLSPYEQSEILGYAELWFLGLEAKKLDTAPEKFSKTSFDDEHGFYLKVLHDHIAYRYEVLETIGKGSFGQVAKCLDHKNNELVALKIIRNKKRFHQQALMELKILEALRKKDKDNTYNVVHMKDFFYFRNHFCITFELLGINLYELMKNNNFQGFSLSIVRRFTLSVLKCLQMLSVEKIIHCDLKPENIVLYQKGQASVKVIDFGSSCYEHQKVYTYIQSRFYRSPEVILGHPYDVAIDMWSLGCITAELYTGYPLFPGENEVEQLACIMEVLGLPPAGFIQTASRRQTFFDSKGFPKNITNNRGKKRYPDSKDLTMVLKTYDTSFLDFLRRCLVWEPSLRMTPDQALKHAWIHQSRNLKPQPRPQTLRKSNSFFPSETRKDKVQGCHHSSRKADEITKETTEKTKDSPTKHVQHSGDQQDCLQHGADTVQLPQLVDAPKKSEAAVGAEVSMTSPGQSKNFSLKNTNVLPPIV

Sample 1
Target: CCNB2, cyclin fold, Cln2 fusion (human)
Method: yeast growth competition, sequencing
Matrix: yeast
Notes: strong parent motif
Reference: not given
Direction: higher = stronger binding
Quantity: normalised enrichment score
Starting sequence: viral docking peptide; YKVKRRLVFGADD; partner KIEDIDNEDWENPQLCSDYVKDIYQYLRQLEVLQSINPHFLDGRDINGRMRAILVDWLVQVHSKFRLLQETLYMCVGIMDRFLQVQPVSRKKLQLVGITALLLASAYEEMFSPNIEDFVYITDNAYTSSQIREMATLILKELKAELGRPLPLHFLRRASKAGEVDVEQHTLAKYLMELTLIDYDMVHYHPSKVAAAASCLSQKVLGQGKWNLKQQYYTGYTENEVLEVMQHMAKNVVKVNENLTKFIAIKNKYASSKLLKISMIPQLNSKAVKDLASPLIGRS
Substitution = K2P; result = 2.95
Substitution = R5G; result = 0.298
Substitution = R6T; result = 0.716
Substitution = V3G; result = -0.143
Substitution = K2G; result = 2.58
Substitution = L7S; result = 1.04
Substitution = R5P; result = -0.286
Substitution = K2M; result = 2.07

Sample 2
Target: UDP-N-acetylglucosamine--peptide N-acetylglucosaminyltransferase 110 kDa subunit (OGT, Homo sapiens, UniProt O15294)
Chain of UniProt O15294 (whole entry, looked up): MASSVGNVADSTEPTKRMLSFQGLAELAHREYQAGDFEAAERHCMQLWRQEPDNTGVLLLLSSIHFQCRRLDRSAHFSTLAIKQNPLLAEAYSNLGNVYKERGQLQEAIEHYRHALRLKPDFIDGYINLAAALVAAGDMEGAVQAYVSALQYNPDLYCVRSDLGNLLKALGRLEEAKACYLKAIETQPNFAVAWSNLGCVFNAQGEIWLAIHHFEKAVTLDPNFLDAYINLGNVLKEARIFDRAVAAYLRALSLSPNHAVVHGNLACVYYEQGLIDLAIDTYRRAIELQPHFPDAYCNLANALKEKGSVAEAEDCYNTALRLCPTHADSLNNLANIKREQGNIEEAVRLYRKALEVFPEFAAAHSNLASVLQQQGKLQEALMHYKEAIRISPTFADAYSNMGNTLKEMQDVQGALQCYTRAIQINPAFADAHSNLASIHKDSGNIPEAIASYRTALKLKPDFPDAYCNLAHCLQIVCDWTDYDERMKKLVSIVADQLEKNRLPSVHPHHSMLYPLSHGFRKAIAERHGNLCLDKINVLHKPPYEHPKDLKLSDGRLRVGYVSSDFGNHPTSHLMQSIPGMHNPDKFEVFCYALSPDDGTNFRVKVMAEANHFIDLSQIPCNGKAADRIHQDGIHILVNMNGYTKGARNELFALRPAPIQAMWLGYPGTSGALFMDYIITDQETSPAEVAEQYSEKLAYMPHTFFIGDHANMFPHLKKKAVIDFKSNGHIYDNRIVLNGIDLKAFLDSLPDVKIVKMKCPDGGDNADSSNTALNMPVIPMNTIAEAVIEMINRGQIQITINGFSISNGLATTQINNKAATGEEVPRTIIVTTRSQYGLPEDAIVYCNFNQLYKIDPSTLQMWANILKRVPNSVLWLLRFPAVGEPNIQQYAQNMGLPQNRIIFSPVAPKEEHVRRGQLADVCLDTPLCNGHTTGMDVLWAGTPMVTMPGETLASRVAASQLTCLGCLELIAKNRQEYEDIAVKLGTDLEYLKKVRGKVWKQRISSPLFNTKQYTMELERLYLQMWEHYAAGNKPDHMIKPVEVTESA
Observed: phage display binding
Method: phage display panning NGS
Molecule type: peptide
Notes: panning round 3
Reference: OGT-panned over input library
Quantity: fold enrichment
Sequence = SYFPVYQIQSFYPVT; result = 4.03
Sequence = QATSPFAPIYQMIRD; result = 1.8
Sequence = SYRPMYQIVQPIKQY; result = 1.73
Sequence = SFVVPRYQIIYKPFQ; result = 2.63
Sequence = YWDAGAFSPKYMIQI; result = 4.09
Sequence = NTPQYYRPYYQITVK; result = 2.44
Sequence = VVQQEYRPRYQISFK; result = 2.01
Sequence = TYKNDRYLPFYPIII; result = 3.86

Sample 3
Target: inorganic phosphate, free oxyanion
Method: microfluidic competitive inhibition
Matrix: in vitro, cell-free expressed
Tested at: not given
Notes: derived from inhibition constants, unchanged parent 615000 nM
Direction: lower = stronger binding
Quantity: phosphate dissociation constant
Starting sequence: PafA, mature enzyme, eGFP fusion (Elizabethkingia meningoseptica, UniProt Q9KJX5); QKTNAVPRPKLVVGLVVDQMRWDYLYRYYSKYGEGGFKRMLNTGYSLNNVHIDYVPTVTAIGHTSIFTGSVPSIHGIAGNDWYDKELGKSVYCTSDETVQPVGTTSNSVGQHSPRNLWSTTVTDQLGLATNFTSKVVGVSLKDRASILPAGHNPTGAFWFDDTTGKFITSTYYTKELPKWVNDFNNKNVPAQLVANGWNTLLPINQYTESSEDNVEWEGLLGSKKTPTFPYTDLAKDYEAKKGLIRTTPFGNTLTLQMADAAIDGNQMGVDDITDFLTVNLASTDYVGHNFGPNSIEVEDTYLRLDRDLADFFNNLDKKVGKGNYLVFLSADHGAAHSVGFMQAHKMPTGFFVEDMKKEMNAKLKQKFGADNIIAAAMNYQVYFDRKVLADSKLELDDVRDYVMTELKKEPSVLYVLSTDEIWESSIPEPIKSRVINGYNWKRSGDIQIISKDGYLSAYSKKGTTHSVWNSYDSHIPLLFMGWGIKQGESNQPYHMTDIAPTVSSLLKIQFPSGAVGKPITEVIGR
Substitution = I374G; result = 566 µM
Substitution = D398G; result = 667 µM
Substitution = T163G; result = 428 µM
Substitution = P72V; result = 518 µM
Substitution = F352G; result = 588 µM
Substitution = V468A; result = 568 µM
Substitution = S338V; result = 498 µM
Substitution = P512G; result = 405 µM

Single results of other studies
SMILES = COC[C@H]1OC(=O)c2coc3c2[C@@]1(C)C1=C(C3=O)[C@@H]2CCC(=O)[C@@]2(C)C[C@H]1OC(C)=O; target = Dual specificity tyrosine-phosphorylation-regulated kinase 4 (DYRK4, Homo sapiens, UniProt Q9NR20); assay = enzyme activity, inhibitor; setting = 0.5 µM; how to read = reference: control; quantity = remaining activity; result = 102%

Excerpt of the above (sample 2):
Sequence = QATSPFAPIYQMIRD; result = 1.8
Sequence = SYRPMYQIVQPIKQY; result = 1.73
Sequence = SFVVPRYQIIYKPFQ; result = 2.63
